Experimental data of several laboratories.
Parts stem from different laboratories: compare values within a part only.

Block 1 — method: universal PBM; molecule type: double-stranded DNA, one strand shown; medium: in vitro; tested at: not given; direction: higher = stronger binding; endpoint: E-score
Target: Sal-like protein 4, full length isoform B (SALL4, Homo sapiens, UniProt Q9UJQ4-2, residues 1-616)
Setting: 8-mer, flanks averaged, mean of replicates
Strand = CGGTGTAA; result = -0.135
Strand = ACAGTTGA; result = -0.067
Strand = CGGTGTCC; result = -0.379
Strand = CCGTAGCC; result = -0.319
Strand = ATGTTCGG; result = 0.0509
Strand = ATCGCTCC; result = -0.155
Strand = AACGAGAG; result = 0.0529
Strand = GGTAGCAC; result = -0.301
Strand = ACGGAGTG; result = -0.1
Strand = TGATCGAA; result = -0.0196
Strand = AACTGAGG; result = -0.0253
Strand = CTTCTGGA; result = -0.15
Strand = CCATCAGG; result = -0.334
Strand = CCTGGGCC; result = -0.319
Strand = ATGACGTG; result = -0.0332
Strand = ATAAGTGG; result = 0.227
Strand = AATCCTAC; result = -0.0872
Strand = AGGTCGCG; result = -0.218
Strand = CAGCCACA; result = -0.0578
Strand = ATTGCGGG; result = -0.0159
Strand = CCGATCCC; result = -0.271
Strand = CGTGCACG; result = 0.0277
Strand = ACATCATA; result = 0.268
Strand = ACACCTAG; result = 0.012
Strand = ATTGTACA; result = 0.227

Block 2 — method: RNA Bind-n-Seq; molecule type: RNA; medium: in vitro; tested at: 1 µM; setting: whole 134-nt RNA, ends assumed; together with: 150 mM KCl; relative to: input library; direction: higher = stronger binding; endpoint: log2 enrichment
Target: Ras GTPase-activating protein-binding protein 1, RRM domain (G3BP1, Homo sapiens, UniProt Q13283)
Sequence of UniProt Q13283 (whole entry, looked up): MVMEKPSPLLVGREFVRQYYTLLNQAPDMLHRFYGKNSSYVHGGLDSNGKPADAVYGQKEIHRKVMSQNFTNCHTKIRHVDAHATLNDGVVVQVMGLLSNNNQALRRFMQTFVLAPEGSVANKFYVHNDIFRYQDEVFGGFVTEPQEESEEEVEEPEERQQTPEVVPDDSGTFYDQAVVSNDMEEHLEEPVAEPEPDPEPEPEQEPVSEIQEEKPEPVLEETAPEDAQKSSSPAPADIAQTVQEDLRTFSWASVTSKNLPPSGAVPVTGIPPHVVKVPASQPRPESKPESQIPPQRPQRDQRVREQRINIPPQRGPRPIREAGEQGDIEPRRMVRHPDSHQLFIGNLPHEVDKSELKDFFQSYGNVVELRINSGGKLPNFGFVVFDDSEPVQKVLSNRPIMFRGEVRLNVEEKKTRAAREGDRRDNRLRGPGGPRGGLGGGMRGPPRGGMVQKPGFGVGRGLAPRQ
Shared flanks, not repeated: GGGAGUUCUACAGUCCGACGAUC … UGGAAUUCUCGGGUGUCAAGG
Strand = UGGGAGGUGGAUUUUGUUUAUUUUUUUAGCUCAUUUCCAGGGGUGGGAAUUUUUUUUUAAUAUGUGUCAUGAAUAAAGUUGUUCUUGAAA; result = 2.25
Strand = UGGAUCAAGAGGAAGUAAAAAGAAUUACCAGUCACAGGCUGACAUUCCCAUUCGGUCUCCCUUUGGUAUUGUGAAAGCAUCCUGGCUACC; result = -0.214
Strand = UCAAGUCCUGUGCUACACAUCGUAUGUACCGAAUCGGUUUUUGGUUUUUGGUGGAAAGUAUUAUGUUACGCCGUUCGGAUCUGCACUUCC; result = -0.232
Strand = CUCAAGUCCUGUGCUACACAUCGUAUGUACCGAAUCGGGAGGGAGGGAAAGGGAAAGUAUUAUGUUACGCCGUUCGGAUCUGCACUUCCA; result = 0.8
Strand = UCCUGUGCUACACAUCGUAUGUACCGAAUCGGGGAAAAAAAGGGGUUUUUGGGGAGGGGAAAGUAUUAUGUUACGCCGUUCGGAUCUGCA; result = 0.815
Strand = CUGUGCUACACAUCGUAUGUACCGAAUCGGGGAAAAAAGGGGAAAAAAGGGAAAAAAGGGGAAAGUAUUAUGUUACGCCGUUCGGAUCUG; result = -0.0975
Strand = CACAGACAACACGCACCCACACAGACACAGAGGGAAGGGGUUGGGAUGGGGACAGGAAACACAGCAGGGCGGGGUAGGACCCCAGCCCCU; result = -0.0613
Strand = CAAGUCCUGUGCUACACAUCGUAUGUACCGAAUCGGGUUUGGGGUUUGGGUUUGGAAAGUAUUAUGUUACGCCGUUCGGAUCUGCACUUC; result = -0.513
Strand = AGUCCUGUGCUACACAUCGUAUGUACCGAAUCGGGGCCCGGGGCCCGGGGCCCGGGGAAAGUAUUAUGUUACGCCGUUCGGAUCUGCACU; result = -1.6
Strand = UGGCCCUGGUGGCAUGCGGGGAGGAAGAGGUGGCCUCAUGGAUCGUGGUGGUCCCGGGGGAAUGUUCAGAGGUGGCCGUGGUGGAGACAG; result = 0.947
Strand = GUCCUGUGCUACACAUCGUAUGUACCGAAUCGGGGUGGGGUUUUUGGGGUUUUUGGGGAAAGUAUUAUGUUACGCCGUUCGGAUCUGCAC; result = 0.716
Strand = GUCCUGUGCUACACAUCGUAUGUACCGAAUCGGGAAAAAGGGAAAAAGGGAAAAAGGGGAAAGUAUUAUGUUACGCCGUUCGGAUCUGCA; result = 0.376
Strand = GGGGUGAGCACAGACAGGAUCGCAGGGAGAGGCCGUAUUAAUUAGCCUGGCUCCCCAGGUUCUGGAACAGCUUUUUGUCCUGUACCCAGU; result = 0.0459
Strand = CAAGUCCUGUGCUACACAUCGUAUGUACCGAAUCGGUUUUUUUGGAGGUUUUUGGAAAGUAUUAUGUUACGCCGUUCGGAUCUGCACUUC; result = -0.285

Block 3 — method: protein-binding microarray; molecule type: double-stranded DNA, one strand shown; medium: in vitro; tested at: 250 nM; setting: 60-bp whole probe; together with: salmon DNA 0.4 mg/ml; relative to: random background probes; direction: higher = stronger binding; endpoint: log fluorescence; shared flanks, not repeated: GCCTAGCAC … GTCTTGATTCGCTTGACGCTGCTG
Target: Interferon regulatory factor 5, full length, phosphomimetic (IRF5, Homo sapiens, UniProt Q13568-2, residues 1-514, K96S/S451D/S453D/S456D/S462D)
Strand = TTAGGCCTCGGACTGGGTTAGTGCTAG; result = -0.538 z-score
Strand = GATGAACTGAGTTTCGAGACGTGCTAG; result = 5.06 z-score
Strand = TTAGGTATCGGTATCGGTAAGTGCTAG; result = 9.34 z-score
Strand = GACGATATCAGACTTGAGACGTGCTAG; result = 0.234 z-score
Strand = GACGATAACAGTTTCGAGACGTGCTAG; result = 5.79 z-score
Strand = GACGGTTTCGGGTATCGGCACGTGCTA; result = 8.2 z-score
Strand = CTAGGTCTCGGTATCGGTTAGTGCTAG; result = 4.94 z-score
Strand = GACGGACTGGGTCACGGGACGTGCTAG; result = -0.447 z-score
Strand = TTAGGTCTCCTTACCCTTTAGTGCTAG; result = -0.403 z-score
Strand = TTATATCTCAGACTGGATTAGTGCTAG; result = 0.295 z-score
Strand = TTAGAACTGAGACTTGATTAGTGCTAG; result = -0.0185 z-score
Strand = TTAGAACTGGGGTTTCTATTAGTGCTA; result = 0.736 z-score
Strand = AACTTGGCAGGAGCGAATGGGTGCTAG; result = -0.58 z-score
Strand = TAGGTTTTCTGGTTCCCATTGTGCTAG; result = 0.633 z-score
Strand = TTCGGACTGCTACTGCTTTAGTGCTAG; result = -0.264 z-score
Strand = GACGATCTGAGACTGGAGACGTGCTAG; result = -0.312 z-score
Strand = GAAGGACTGGGTATCGGGACGTGCTAG; result = 0.653 z-score
Strand = GACGATATCAGTATCGAGAAGTGCTAG; result = 3.66 z-score
Strand = GTCGAACTGGGGTTTCGAGACGTGCTA; result = 1.15 z-score
Strand = TGAGGTATCGACTTTCGGTTAGTGCTA; result = 9.88 z-score

Block 4 — method: protein binding microarray; molecule type: double-stranded DNA, one strand shown; medium: in vitro; tested at: not given; relative to: not given; direction: higher = stronger binding; endpoint: E-score
Target: Histone acetyltransferase KAT6A, winged helix 2, GST fusion (KAT6A, Homo sapiens, UniProt Q92794, residues 85-181)
Setting: 8-mer, flanks averaged, mean of 2 arrays, mostly near background
Residues (chain): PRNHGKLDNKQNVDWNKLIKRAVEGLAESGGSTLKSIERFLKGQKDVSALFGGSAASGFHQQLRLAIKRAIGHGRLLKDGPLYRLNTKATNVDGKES
Strand = AGAGTGGG; result = 0.109
Strand = CTCAGCAG; result = 0.0552
Strand = AGGGGAAA; result = -0.0338
Strand = ACGCCCAA; result = -0.00465
Strand = ACCAAGGC; result = -0.0742
Strand = TAACTCTA; result = -0.222
Strand = GTTGGTCA; result = 0.028
Strand = CCTGAAAA; result = -0.0566
Strand = GCACAGGC; result = 0.079
Strand = CCTTGGAC; result = -0.129
Strand = TTCACAAA; result = 0.111
Strand = AATTATTG; result = 0.0109
Strand = CTCACCGA; result = 0.0948
Strand = GGCTTGAA; result = 0.0317
Strand = CACGTACG; result = -0.247
Strand = GTCAAAGA; result = 0.115
Strand = CCCCTTAC; result = 0.0625
Strand = CCTTTGTC; result = -0.0733
Strand = ACCCTCAG; result = 0.0459
Strand = AGGTCAGC; result = 0.0738
Strand = CTCAGTAA; result = -0.038
Strand = ATGTGCCC; result = 0.111

Block 5 — method: RNA Bind-n-Seq; molecule type: RNA; medium: in vitro; tested at: 100 nM; relative to: input RNA pool; direction: higher = stronger binding; endpoint: bound/input enrichment
Target: RING finger protein unkempt homolog, zinc fingers 1-6, SBP tag (UNK, Homo sapiens, UniProt Q9C0B0, residues 30-357)
Sequence of UniProt Q9C0B0 (30-357, looked up): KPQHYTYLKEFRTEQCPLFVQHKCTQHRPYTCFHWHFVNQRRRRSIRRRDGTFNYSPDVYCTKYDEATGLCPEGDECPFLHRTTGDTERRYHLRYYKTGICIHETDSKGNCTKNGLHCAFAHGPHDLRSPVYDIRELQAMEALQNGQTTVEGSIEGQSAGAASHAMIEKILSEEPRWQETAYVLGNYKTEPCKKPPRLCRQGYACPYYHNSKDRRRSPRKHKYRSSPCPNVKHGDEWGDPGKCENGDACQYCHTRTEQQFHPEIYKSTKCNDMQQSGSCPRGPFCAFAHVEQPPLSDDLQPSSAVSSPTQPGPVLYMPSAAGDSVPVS
Setting: RNA with constant flanks, vertebrate orthologous sites, ends assumed
Shared flanks, not repeated: GGGAGUUCUACAGUCCGACGAUC … CAACAGAGGAUUGAGCAUCA
Strand = UAUUUAAAAUACACUUAAUUGUAUUUAAUGACCUCAUUCCUAGUUCCUUGUUCAUUAAAGUAGCUCAUUUCCAUUAAUGCCAUUUUUAACAGUAUGAACAAAUUGAAGGUUUGUGCAGUA; result = 0.493 ratio
Strand = CAUCUCUCAUUUUAUAUGUCCAAAAAUGGCUUUGAAUUUUAAGCAAUUACUAGUUUUAAUUAGCUCUGCCCUCAUGAAGUAUUAUUAUAAUUCACUUUAAACAGAUAUCUGUCUGAAUUA; result = 1.77 ratio
Strand = AGAACUCUUGCAGUCUUAGAUGUUAUAAAAAUAUAUAUAUAUCUGAAUUGUAAGAGUUGUUAGCACAGUUUUUUUGUUUGUUUUUAAACACUUGUUUUGGGUACAAGGCAUUUCUGAAAU; result = 0.58 ratio
Strand = CUCUACGGGCCUCGCAGAGUUGAAAUAAUGGAAGAGGAAAGUGAAUAGUAAUCUUCAUUUUAGUAUUUAUGCUUAGGUGUGAAAUAAAUGUUAUUCGUUGAUCAUUUCUAUAAUCCAGAG; result = 0.568 ratio
Strand = GAAUUGAACAAAAACGUUUCCACUGGGUUUGGCCUGUAAGAAAAAAUGUACCCGAGCACAUAGAGCUUUUUAAUAGCACUAACCAAUGCCUUUUUAGAUGUAUUUUUGAUGUAUAUAUCU; result = 0.622 ratio
Strand = AAGAUUAUUAUUUUUUUUUUUAAAACAAUUCCAUGCAAUAUCACUUUCCUCACCUCCAGAACAAGACAACUUAAUUCUAGGCAUAUUAUUCAAAAUGUGCGAAUGUGUGAGCACGUUACG; result = 1.83 ratio
Strand = AUUCAAACCUGUGGUACCAUGGCCUCAUGUUGAAGGAGUAGAAGUGGACUUAGAGUCUAUUAGAAGAAAAAACAAGGCCAAAAAUGAACAGGAGCACCAUGCUGGAGGAGAUUCCCAAAA; result = 0.38 ratio
Strand = CAUGACCUUGUUACUGUGAUAUUUUAAAUAUCCACAGUACUCACUUUUUCCAAAUGAUCCUAGUAAUUGCCUAGAAAUCUUUCUCUUACCUGUUAUUUAUCAAUUUUUCCCAGUAUUUUU; result = 1.48 ratio
Strand = CUCUACGGGCCUCGCAGAGUUGAAAUAAUGGAAGAGGAGAAUGAACAGUAAUCUGCAUUAGUAUUUAUGCUUAGGUGUGAAAUGUUAUUUGAUCAUUUCUAUAAUCCAGAGCUUUAGAGA; result = 0.807 ratio
Strand = GUAAUGCAUUUUGUGACUUGGAUGUGGUCUGCACGGGAAGCUGCUGGCCUCUCCACAACACAUUCAAUUUUUGUCUUUUUUUAAGAAGUUAAAACUGAAUUUAAUUUACUAAAACUGUAA; result = 0.31 ratio
Strand = GCAUGUCCAGUCACUGUGGUAUUCAAAAUACCCACAGUUCUCACUUGUUCCAAAUGAUCCUAAUAAUUGCCUAGAAAUGUCUUUCUCUUACCUGUUAUUUAUCAAUUUUUCCCAGUAUUU; result = 1.19 ratio

Some of these lines once more (block 4):
Strand = ACCAAGGC; result = -0.0742
Strand = TAACTCTA; result = -0.222
Strand = GTTGGTCA; result = 0.028
Strand = CCTGAAAA; result = -0.0566
Strand = GCACAGGC; result = 0.079
Strand = CCTTGGAC; result = -0.129
Strand = TTCACAAA; result = 0.111
Strand = AATTATTG; result = 0.0109
Strand = CTCACCGA; result = 0.0948
Strand = GGCTTGAA; result = 0.0317
Strand = CACGTACG; result = -0.247
Strand = GTCAAAGA; result = 0.115
Strand = CCCCTTAC; result = 0.0625
